# Published values from different studies.
# Lines come from different studies, so protocols differ.
# Organism: Staphylococcus aureus
SMILES,test,test system,conditions,MIC
NCCCC[C@@H]1NC(=O)[C@@H](CCCCN)NC(=O)[C@H](CCCCN)NC(=O)[C@@H](CCCCN)NC(=O)[C@H](Cc2c[nH]c3ccccc23)NC(=O)[C@@H](Cc2c[nH]c3ccccc23)NC(=O)[C@H](Cc2c[nH]c3ccccc23)NC(=O)[C@@H](Cc2c[nH]c3ccccc23)NC(=O)[C@@H](N)CSCc2ccc(cc2)CSC[C@@H](C(N)=O)NC(=O)[C@@H](CCCCN)NC1=O,,Newman MSSA,,64 mg/L
CC[C@@H](C)[C@H]1NC(=O)[C@H]([C@@H](C)CC)NC(=O)[C@@H](CCCN)NC(=O)[C@@H](NC(=O)[C@@H](NC(=O)[C@@H](CCC(=O)O)NC(=O)[C@H](CC(C)C)NC(=O)[C@@H]2CSC([C@@H](N)[C@@H](C)CC)=N2)[C@@H](C)CC)CCCCNC(=O)[C@H](CC(N)=O)NC(=O)[C@@H](CC(=O)O)NC(=O)[C@H](Cc2c[nH]cn2)NC1=O,broth microdilution,"ATCC 29213, LB medium","18 h, 37 °C, with: ZnSO4 0.3 mM",4 mg/L
O=c1[nH]c(=O)c2cccc(O)c2o1,,ATCC 29213,50 µg/mL,inactive
N=C(N)NCCC[C@@H]1NC(=O)[C@H](CCCNC(=N)N)NC(=O)[C@H](CCCNC(=N)N)NC(=O)[C@H](Cc2c[nH]c3ccccc23)NC(=O)[C@H](Cc2c[nH]c3ccccc23)NC(=O)[C@H](Cc2c[nH]c3ccccc23)NC(=O)[C@H](CCCNC(=N)N)NC1=O,broth microdilution,MRSA ATCC 43300,37 °C,18.5 mg/L
C[C@H]1COc2c(N3CCN(C)CC3)c(F)cc3c(=O)c(C(=O)O)cn1c23,broth microdilution,multidrug-resistant,,25 µM
CN[C@@H]1[C@H](O)[C@H](NC)[C@H]2O[C@]3(O)[C@H](O[C@@H]2[C@H]1O)O[C@H](C)C[C@@]3(O)CNCc1ccccc1,,MRSA NRS70,,50 to 100 mg/L
CC[C@H](C)[C@H](NC(=O)[C@H](CCCCN)NC(=O)[C@H](CCCCN)NC(=O)[C@H](Cc1c[nH]c2ccccc12)NC(=O)[C@H](CC(N)=O)NC(=O)[C@@H](N)C(C)C)C(=O)N[C@@H](CC(C)C)C(=O)NCC(=O)N[C@@H](CCCCN)C(=O)N[C@H](C(=O)N[C@H](C(=O)N[C@@H](CCCCN)C(=O)N[C@H](C(=O)N[C@H](C(=O)N[C@@H](CCCCN)C(N)=O)C(C)C)C(C)C)[C@@H](C)CC)[C@@H](C)CC,,"MSSA RN 4220, RPMI medium","24 h, 37 °C",1.9 µM
COc1ccc2ccc3c(c2c1)C=[N+]1C2CCCCC2[N+]2=Cc4cc(C)ccc4[O][Au-]21[O]3.F[P-](F)(F)(F)(F)F (centres unmarked),"bacterial growth, broth microdilution",vancomycin-intermediate,24 h,> 20 µM
O=C(O)c1ccc(-n2cc(/C=N/Nc3ccc([N+](=O)[O-])cc3)c(-c3cccc(F)c3)n2)cc1,microbial growth,ATCC33592,drug-resistant strain,0.78 mg/L
CC(C)CCCCCCCCC/C=C/C(=O)N[C@@H](CC(=O)O)C(=O)N[C@H]1CNC(=O)[C@@H]2CCCN2C(=O)[C@H](Cc2ccccc2)NC(=O)[C@@H]([C@@H](C)O)NC(=O)CNC(=O)[C@H](CC(=O)O)NC(=O)CNC(=O)[C@H](CC(=O)O)NC(=O)CNC(=O)[C@H]2CCCCN2C1=O,,MRSA USA300,with: Ca2+ 1 mM,16 mg/L
CCCCCCCCCCCCCC(=O)N[C@H](CCN)C(=O)N[C@H](C(=O)N[C@@H](CCN)C(=O)N[C@@H](CC(C)C)C(=O)N[C@@H](CCN)C(=O)N[C@H](Cc1ccccc1)C(=O)N[C@@H](CC(C)C)C(=O)N[C@@H](CCN)C(=O)N[C@H](Cc1ccc(O)cc1)C(=O)N[C@H](C(=O)N[C@@H](CC(=O)O)C(=O)O)C(C)C)[C@@H](C)O,broth microdilution,BNCC 186335,,2 mg/L
CCN1CCNC1=[S+][Ag-3]([O][N+](=O)[O-])([P+](c1ccccc1)(c1ccccc1)c1ccccc1)[P+](c1ccccc1)(c1ccccc1)c1ccccc1,agar dilution,methicillin-resistant,"24 h, 37 °C",10 mg/L
CC(C)C[C@H](NC(=O)CN)C(=O)N[C@@H](CC(C)C)C(=O)N[C@@H](CCCCN)C(=O)N[C@@H](CC(C)C)C(=O)N[C@@H](CC(C)C)C(=O)N[C@@H](CCCCN)C(=O)N[C@@H](CCCCN)C(=O)N[C@@H](CC(C)C)C(=O)N[C@@H](CC(C)C)C(=O)N[C@@H](CCCCN)C(=O)N[C@@H](CC(C)C)C(=O)N[C@@H](CC(C)C)C(=O)N[C@@H](CCCCN)C(N)=O,,"ATCC 43300, CAMHB","18 h, 37 °C",> 19 µM
CC(C)CCCCCCCCCCCCc1cc(O)cc(O)c1,"microbial growth, broth dilution",USA300,drug-resistant strain,> 64 mg/L
CC(C)C[C@@H]1NC(=O)[C@H](C)NC(=O)[C@H](NC(=O)[C@H](CO)NC(=O)[C@@H](CCCCN)NC(=O)[C@@H](CC(C)C)NC(=O)[C@H](C)N)[C@H](C(N)=O)OC(=O)[C@H](CC(C)C)NC1=O,,MRSA ATCC 700698,TFA salt,16 mg/L
CCCCCCCCN1C(=O)/C(=N\NC(=N)N)c2cc(C)ccc21,broth microdilution,BAA41 MRSA,"18 h, 37 °C",6 mg/L
c1ccc(CCNC2CCCc3c2[nH]c2ccc(C4CCCCC4)cc32)cc1 (centres unmarked),broth microdilution,"ATCC 29213, cation-adjusted Mueller-Hinton broth",,2 mg/L
C=Cc1cc(OC)c2c(c1)c(=O)oc1c2cc(OC)c2c(O)ccc([C@@H]3O[C@H](C)[C@H](O)[C@@](C)(O)[C@H]3O)c21,"microbial growth, broth dilution",MRSA USA300,,0.5 mg/L
CC[C@H](C)[C@H](NC(=O)[C@@H](Cc1ccccc1)NC)C(=O)OC[C@H](N)C(=O)N[C@H](CCC(N)=O)C(=O)N[C@@H](C(=O)N[C@H](C(=O)OC[C@H](N)C(=O)N[C@H]1C(=O)N[C@@H](C)C(=O)N[C@@H](C2CCCCC2)C(=O)N[C@@H]([C@@H](C)CC)C(=O)O[C@H]1C)[C@@H](C)CC)[C@@H](C)CC,broth microdilution,"ATCC 29213, MSSA, Mueller-Hinton broth","16 h, 37 °C",0.5 mg/L
CC(C)C[C@H](NC(=O)[C@H](CC(N)=O)NC(=O)[C@H](CCCNC(=N)N)NC(=O)[C@@H](CC(C)C)NC(=O)[C@H](Cc1ccc(-c2ccccc2)cc1)NC(=O)[C@H](CC(=O)O)NC(=O)[C@H](CCCCN)NC(=O)[C@@H](CC(C)C)NC(=O)[C@H](CCCNC(=N)N)NC(=O)[C@H](CCC(N)=O)NC(=O)[C@@H](NC(=O)[C@@H](CC(C)C)NC(=O)[C@H](CCCNC(=N)N)NC(=O)[C@H](CCCCN)NC(=O)[C@H](Cc1ccc(-c2ccccc2)cc1)NC(=O)CN)C(C)C)C(=O)N[C@H](C(N)=O)C(C)C,broth microdilution,"USA300, Mueller-Hinton broth","overnight, 37 °C",4 µM
CN1C(=O)[C@@H]2NC(=O)[C@@H]3NC(=O)[C@@H](c4ccc(O)cc4)NC(=O)[C@H](NC(=O)C(NCc4cc(Cl)cc(Cl)c4Cl)c4ccc(O)cc4)Cc4c[nH]c5cc(ccc45)-c4cc3cc(c4O)Oc3ccc(cc3)C[C@H]1C(=O)N[C@@H](C(=O)O)c1ccc(O)c(c1)Oc1ccc2cc1 (some centres unmarked),,"ATCC 33591 MRSA, Mueller-Hinton broth",,4 mg/L
COc1ccc2c(c1CC=C(C)C)O[C@H]1c3cc(CC=C(C)C)c(O)cc3OC[C@@H]21,,,,128 mg/L
CC[C@H](C)[C@H](NC(=O)[C@H](CCC(N)=O)NC(=O)[C@@H]1CCCN1C(=O)[C@@H](NC(=O)[C@@H](NC(=O)[C@H](Cc1ccccc1)NC(=O)[C@H](C)NC(=O)[C@H](C)NC(=O)[C@H](CC(C)C)NC(=O)[C@H](CCCNC(=N)N)NC(=O)[C@H](C)NC(=O)[C@H](CC(C)C)NC(=O)[C@H](CC(C)C)NC(=O)CNC(=O)[C@@H](NC(=O)[C@@H](N)Cc1ccccc1)C(C)C)C(C)C)[C@@H](C)CC)C(=O)N[C@H](C(=O)N[C@@H](CCCCN)C(=O)N[C@@H](CCCNC(=N)N)C(=O)N[C@@H](Cc1ccccc1)C(=O)N[C@@H](CCC(N)=O)C(=O)N[C@@H](CCCCN)C(=O)N[C@@H](CCCCN)C(=O)N[C@@H](CC(N)=O)C(N)=O)C(C)C,broth microdilution,MRSA ATCC 33592,,1.56 to 3.12 µM
CC(C)C[C@@H]1NC(=O)[C@H](C)NC(=O)[C@H](NC(=O)[C@H](CO)NC(=O)[C@@H](CCCCN)NC(=O)[C@@H](CC(C)C)NC(=O)[C@@H](N)Cc2ccccc2)[C@H](C)OC(=O)[C@H](CC(C)C)NC1=O,,MSSA ATCC 29213,TFA salt,8 mg/L
O=C1c2ccccc2NC(c2ccccc2O)N1/N=C/c1ccccc1O (centres unmarked),"microbial growth, broth dilution",MRSA,"24 h, drug-resistant strain, clinical isolate",> 256 mg/L
O=C(O)c1ccc(-n2cc(/C=N/Nc3cccc(Cl)c3F)c(-c3ccc4ccccc4c3)n2)cc1,microbial growth,BAA2312,drug-resistant strain,3.12 mg/L
CC(C)S[C@H]1[C@H](O)[C@@H](N)[C@@H](O[C@H]2[C@H](O[C@@H]3O[C@H](CO)[C@@H](O[C@H]4O[C@@H](CN)[C@@H](O)[C@H](O)[C@H]4N)[C@H]3O)[C@@H](O)[C@H](N)C[C@@H]2N)O[C@@H]1CO,,"methicillin-resistant, AAC(6') ANT(4',4'') APH(3')",,2 to 4 mg/L
CCO[C@H]1[C@H](O)[C@@H](N)[C@@H](O[C@H]2[C@H](O[C@@H]3O[C@H](CO)[C@@H](O[C@H]4O[C@@H](CN)[C@@H](O)[C@H](O)[C@H]4N)[C@H]3O)[C@@H](O)[C@H](N)C[C@@H]2N)O[C@@H]1CO,broth microdilution,MRSA isolate AG 039,,16 mg/L
COc1cc(/C=N/N2C(=O)c3ccccc3NC2c2cc(OC)c(O)c([N+](=O)[O-])c2)cc([N+](=O)[O-])c1O (centres unmarked),"microbial growth, broth dilution",,"24 h, drug-resistant strain, clinical isolate",> 256 mg/L

# Repeated from above:
SMILES,test,test system,conditions,MIC
N=C(N)NCCC[C@@H]1NC(=O)[C@H](CCCNC(=N)N)NC(=O)[C@H](CCCNC(=N)N)NC(=O)[C@H](Cc2c[nH]c3ccccc23)NC(=O)[C@H](Cc2c[nH]c3ccccc23)NC(=O)[C@H](Cc2c[nH]c3ccccc23)NC(=O)[C@H](CCCNC(=N)N)NC1=O,broth microdilution,MRSA ATCC 43300,37 °C,18.5 mg/L
C[C@H]1COc2c(N3CCN(C)CC3)c(F)cc3c(=O)c(C(=O)O)cn1c23,broth microdilution,multidrug-resistant,,25 µM
CN[C@@H]1[C@H](O)[C@H](NC)[C@H]2O[C@]3(O)[C@H](O[C@@H]2[C@H]1O)O[C@H](C)C[C@@]3(O)CNCc1ccccc1,,MRSA NRS70,,50 to 100 mg/L
CC[C@H](C)[C@H](NC(=O)[C@H](CCCCN)NC(=O)[C@H](CCCCN)NC(=O)[C@H](Cc1c[nH]c2ccccc12)NC(=O)[C@H](CC(N)=O)NC(=O)[C@@H](N)C(C)C)C(=O)N[C@@H](CC(C)C)C(=O)NCC(=O)N[C@@H](CCCCN)C(=O)N[C@H](C(=O)N[C@H](C(=O)N[C@@H](CCCCN)C(=O)N[C@H](C(=O)N[C@H](C(=O)N[C@@H](CCCCN)C(N)=O)C(C)C)C(C)C)[C@@H](C)CC)[C@@H](C)CC,,"MSSA RN 4220, RPMI medium","24 h, 37 °C",1.9 µM
COc1ccc2ccc3c(c2c1)C=[N+]1C2CCCCC2[N+]2=Cc4cc(C)ccc4[O][Au-]21[O]3.F[P-](F)(F)(F)(F)F (centres unmarked),"bacterial growth, broth microdilution",vancomycin-intermediate,24 h,> 20 µM
